Published values pooled from the literature.
A part holds a random share of what one study measured.

Study 1 — method: protein binding microarray; molecule type: double-stranded DNA, one strand shown; sample: in vitro; concentration: not given; reference: not given; reading: higher = stronger binding
Target: Histone acetyltransferase KAT6A, both winged helices, GST fusion (KAT6A, Homo sapiens, UniProt Q92794, residues 1-181)
Notes: 8-mer, flanks averaged, mean of 2 arrays, mostly near background
Construct (chain): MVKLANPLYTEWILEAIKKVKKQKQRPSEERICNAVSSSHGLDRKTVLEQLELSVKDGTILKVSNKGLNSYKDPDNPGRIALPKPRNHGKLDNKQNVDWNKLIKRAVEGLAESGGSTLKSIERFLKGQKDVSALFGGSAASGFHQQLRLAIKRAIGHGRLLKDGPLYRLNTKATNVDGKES
Strand | E-score
CGTGTTAG | 0.137
CGTTATTC | 0.0226
ATGAGCAG | -0.157
TATGCAAA | -0.151

Study 2 — method: RNAcompete; molecule type: RNA; sample: in vitro; concentration: 20 nM; notes: 7-mer, probes averaged, single round; reference: mean of 7-mers; reading: higher = stronger binding
Target: PABPC1L2, full length, GST fusion (mouse, UniProt A0ABA7IW68)
Target sequence (chain): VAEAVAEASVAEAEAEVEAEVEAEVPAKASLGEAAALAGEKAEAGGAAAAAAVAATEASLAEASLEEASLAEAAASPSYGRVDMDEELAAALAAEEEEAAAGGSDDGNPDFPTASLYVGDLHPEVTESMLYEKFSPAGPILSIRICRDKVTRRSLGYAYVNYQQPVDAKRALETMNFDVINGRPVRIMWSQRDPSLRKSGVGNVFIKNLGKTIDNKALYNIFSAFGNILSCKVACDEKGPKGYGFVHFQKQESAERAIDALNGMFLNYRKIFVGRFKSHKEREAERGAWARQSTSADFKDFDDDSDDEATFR
Strand | 7-mer Z-score
AUCGGUC | -0.18
ACUACUC | -0.164
CCCGUGG | -0.249
UAUAGAC | -0.101
AUACCCU | -0.277
UAAGAAA | 1.12

Study 3 — method: protein-binding microarray; molecule type: double-stranded DNA, one strand shown; sample: in vitro; concentration: 2200 nM top; notes: 60-bp whole probe; added: salmon DNA 0.4 mg/ml; reference: random background probes; reading: higher = stronger binding; shared flanks, not repeated: GCCTAGCAC … GTCTTGATTCGCTTGACGCTGCTG
Target: Interferon regulatory factor 7, full length, phosphomimetic (IRF7, Homo sapiens, UniProt Q92985, residues 1-503, S471D/S472D/S475D/S476D/S477D/S483D/S484D/S487D)
Residues (chain): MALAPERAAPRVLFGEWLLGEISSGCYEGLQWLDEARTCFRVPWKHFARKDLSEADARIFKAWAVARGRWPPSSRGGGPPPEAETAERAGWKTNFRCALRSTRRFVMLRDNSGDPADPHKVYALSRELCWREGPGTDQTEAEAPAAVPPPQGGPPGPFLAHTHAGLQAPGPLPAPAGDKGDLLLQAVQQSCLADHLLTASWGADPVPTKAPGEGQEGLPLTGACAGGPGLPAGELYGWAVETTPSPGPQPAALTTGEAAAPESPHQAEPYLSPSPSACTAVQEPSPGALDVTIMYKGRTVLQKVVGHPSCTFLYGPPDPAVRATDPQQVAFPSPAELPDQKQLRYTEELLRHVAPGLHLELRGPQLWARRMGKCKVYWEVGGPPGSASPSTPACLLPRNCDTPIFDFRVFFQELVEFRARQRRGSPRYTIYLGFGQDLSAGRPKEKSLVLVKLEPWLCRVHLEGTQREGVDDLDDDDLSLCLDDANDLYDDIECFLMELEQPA
Strand | fitted relative affinity [z-score]
TTAGGTATCGTGTATCGGTTAGTGCTA | 0.621
TTAGGTCTACTTTTCCTTTAGTGCTAG | 2.59
GACGGTATCCTACAGCTGACGTGCTAG | 0.471
TTCGGTATCGACTATCGGTTAGTGCTA | 1.05
GACGATATCAGACTGGAGACGTGCTAG | -0.0908
TTAGATATCAGACCGGATTAGTGCTAG | -0.115

Other studies, line by line
Molecule | target | test | system | setting | how to read | endpoint | result
PhoQ, residues 284 288 289 292 302 303 ALVSVA | PhoP, residues 12 14 15 18 19 NFCKL (Escherichia coli, UniProt P23836) | Sort-seq, refers to: YFP reporter | E. coli | PhoQ-PhoP variant library, added: 10 µM Mg2+ | reference: high Mg2+ state, higher = stronger signaling | fold induction | 1.17

For quick reference, copied from above (study 2):
Strand | 7-mer Z-score
CCCGUGG | -0.249
UAUAGAC | -0.101
